Published values collected from several papers.
Parts stem from different laboratories: compare values within a part only.

Set 1
Target: Interferon regulatory factor 5, full length, phosphomimetic (IRF5, Homo sapiens, UniProt Q13568-2, residues 1-514, S451D/S453D/S456D/S462D)
Method: protein-binding microarray
Molecule type: double-stranded DNA, one strand shown
Sample: in vitro
Concentration: 940 nM top
Notes: 60-bp whole probe
Added: salmon DNA 0.4 mg/ml
Baseline: random background probes
Reading: higher = stronger binding
Shared flanks, not repeated: GCCTAGCAC … GTCTTGATTCGCTTGACGCTGCTG
Under “fitted relative affinity”, `GACGGTATCGGGTTCCGGGACGTGCTA` is recorded as 5 z-score.
Under “fitted relative affinity”, `TTAGATTCCAGTTTCGATGAGTGCTAG` is recorded as 7.14 z-score.
For `GACGGTTTCCTTTTCCTGTCGTGCTAG`, “fitted relative affinity” read 4.06 z-score.
Under “fitted relative affinity”, `GACGGAGTGGACTATCGGGACGTGCTA` is recorded as -0.0179 z-score.
For `TTAGAGTTCAGTTCCGATTAGTGCTAG`, “fitted relative affinity” read 1.14 z-score.
Under “fitted relative affinity”, `GACGGTTTCGACTTTCGGGCCGTGCTA` is recorded as 6.79 z-score.
Under “fitted relative affinity”, `TCAGTTTTTATTTTCTGACTGTGCTAG` is recorded as 1.29 z-score.
`TCAAACTTGTGTTTGTCACTGTGCTAG`: “fitted relative affinity” 0.0441 z-score.
Under “fitted relative affinity”, `TTAGATCTCAGTCTTGATTAGTGCTAG` is recorded as 0.256 z-score.
For `TTAGGTCTCCTACTTCTTTAGTGCTAG`, “fitted relative affinity” read 0.059 z-score.
Under “fitted relative affinity”, `ATATATATATTGTTAGTGTAGTGCTAG` is recorded as 0.32 z-score.
Under “fitted relative affinity”, `CTATTTTTCACCTGCACTCAGTGCTAG` is recorded as 1.36 z-score.
Under “fitted relative affinity”, `TTAGGTATCCTTTTGCTTTAGTGCTAG` is recorded as 0.718 z-score.
`TTACGACTGCTACTGCTTTAGTGCTAG`: “fitted relative affinity” -0.0966 z-score.
`TTTGAACTGGGGACTGGATTAGTGCTA` — result for “fitted relative affinity”: 0.0762 z-score.
`TTAGGTTTCGACTAGCGGTTAGTGCTA` — result for “fitted relative affinity”: 9.87 z-score.
Under “fitted relative affinity”, `GACGATATCGGGTATCGAAACGTGCTA` is recorded as 1.83 z-score.

Set 2
Target: RING finger protein unkempt homolog, zinc fingers 1-6, GST-SBP tag (UNK, Homo sapiens, UniProt Q9C0B0, residues 30-357)
Chain of UniProt Q9C0B0 (30-357, looked up): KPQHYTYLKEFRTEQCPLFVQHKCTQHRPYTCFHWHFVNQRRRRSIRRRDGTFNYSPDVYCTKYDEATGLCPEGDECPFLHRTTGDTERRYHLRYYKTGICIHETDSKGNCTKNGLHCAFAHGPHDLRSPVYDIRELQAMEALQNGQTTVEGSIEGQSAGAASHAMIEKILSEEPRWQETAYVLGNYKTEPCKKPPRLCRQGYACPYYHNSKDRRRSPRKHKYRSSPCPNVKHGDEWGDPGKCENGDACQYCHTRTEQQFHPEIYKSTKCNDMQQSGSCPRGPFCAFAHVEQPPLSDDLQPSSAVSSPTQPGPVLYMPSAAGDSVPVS
Method: RNA Bind-n-Seq
Molecule type: RNA
Sample: in vitro
Concentration: not given
Notes: RNA with constant flanks, human and mouse sites, ends assumed
Baseline: input RNA pool
Reading: higher = stronger binding
`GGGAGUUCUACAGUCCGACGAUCGCGGGCAUCCUCUCUGCCCUGGGCUCCAAGACAUCUCUUAUGAUCAGGCAUGAUAAGGUACUGAGAAAUUUUGAUUCACUCAUCAGUUCCAACUGCACCGAGGAACUGGAGAAUGCCGGCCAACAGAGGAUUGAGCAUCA` gave a bound/input enrichment of 0.206 ratio.
`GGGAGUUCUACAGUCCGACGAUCUUGGAUUCCCCUGAUCAGUUGUCCGGAUUGACAAUGAUUACACACCUCACUGCUACUUCUGACUAUCACAAGGUGGUUGUCAAUUACUUGGCUGGGUUUUUCUACUUACUGAAUUCAGGCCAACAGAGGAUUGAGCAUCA` has a bound/input enrichment of 0.121 ratio.
`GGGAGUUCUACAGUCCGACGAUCUACAUUUGUGUCUUCCAGAUCUGGAGAAGAACAGACAUAUUUAAAUCAUUCUUGUUGAACAGUUUUUGUAUGUACAGUAUUAUGGUACUUUUUUUUUUUUAGUAUGAGAACUUUUUUUGUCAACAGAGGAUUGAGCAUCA` has a bound/input enrichment of 1.62 ratio.
With `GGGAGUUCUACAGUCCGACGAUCUUCUGUCUGUAGGUAGGUUGUUGAUUCUAAGUAGCUUUCGUUUGUUCGUCUGUCUUAUGUCUUAGACCAGCUUUGUGGUGUUCUUGGCUCAUCUCAUAAUACUGUUGUUCAGUUUAUAUCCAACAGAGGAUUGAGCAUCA` the bound/input enrichment was 0.364 ratio.
For `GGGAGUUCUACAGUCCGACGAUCACUGAGCAGAAUGAAGAACUGAGCAUCUUAUAUCCAGCCGCCAUUGUGACGAUUGAUGGAUUUAGUCUCUUUCAGUCUCUUCGAGCCUGUCGAAACCAAGUAGCAAAAGCUGCAGCAUCACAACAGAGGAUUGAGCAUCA`, the bound/input enrichment was 0.21 ratio.
`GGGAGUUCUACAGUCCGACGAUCUUAGUCAUGGAAUACGCGAGUGGGGGUGAAGUAUUUGAUUACUUAGUUGCCCAUGGAAGAAUGAAAGAGAAAGAGGCCCGUGCAAAAUUUAGGCAGAUUGUAUCUGCUGUACAGUAUUGUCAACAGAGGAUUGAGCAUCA` has a bound/input enrichment of 0.379 ratio.
For `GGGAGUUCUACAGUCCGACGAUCGAGCAAGAAUUUCAAACAUGCCUGACAAUCUGAUCUCUCUUGAAAUAAAGAGGGAUGCCAUUAGUCUAGACGUCGUUGUGAAAUCCUUGAGAUAUAAAGUGUGACUGGGUGUUUUCAAGACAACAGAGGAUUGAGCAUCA`, the bound/input enrichment was 0.174 ratio.
The bound/input enrichment of `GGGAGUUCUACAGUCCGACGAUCCACAAGGAGCAGGCGGCCCAGCUGCGGAACCUGGUGCAGUGUGGUGACUUUCCUCAUCUGUUAGUGUACGGACCAUCAGGUGCUGGAAAAAAGACAAGAAUUAUGUGUAUUCUACGUGAACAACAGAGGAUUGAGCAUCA` is reported as 0.169 ratio.

Set 3
Target: Prothrombin, mature alpha-thrombin (F2, Homo sapiens, UniProt P00734)
Method: aptamer microarray, sandwich
Molecule type: DNA with 2'F-ANA
Sample: in vitro
Concentration: 200 nM
Notes: whole 15-mer aptamer, many near background
Added: Cy3 exosite-II aptamer, 400 nM
Reading: higher = stronger binding
Strand: GGTTGGTGTGGTTGG
`2'F-ANA at 3 5 6 7 10 11 15` — result for “mean fluorescence intensity”: 50.3 a.u.
For `2'F-ANA at 1 3 6 8 10 11 12 13 14 15`, “mean fluorescence intensity” read 63.2 a.u.
Under “mean fluorescence intensity”, `2'F-ANA at 1 7 8 12 14 15` is recorded as 116 a.u.
`2'F-ANA at 1 8 14 15` — result for “mean fluorescence intensity”: 63.4 a.u.
For `2'F-ANA at 1 2 4 5 6 8 10 11 14 15`, “mean fluorescence intensity” read 50 a.u.
`2'F-ANA at 1 3 4 5 10 13` — result for “mean fluorescence intensity”: 44.9 a.u.
`2'F-ANA at 3 4 7 8 9 11 13 14 15` — result for “mean fluorescence intensity”: 293 a.u.
Under “mean fluorescence intensity”, `2'F-ANA at 6 7 8 9 11 12 13` is recorded as 619 a.u.
For `2'F-ANA at 3 7 11 14`, “mean fluorescence intensity” read 642 a.u.
`2'F-ANA at 1 3 4 6 8 9 11 13` — result for “mean fluorescence intensity”: 123 a.u.
`2'F-ANA at 1 2 4 5 6 7 8 10 11 13 14`: “mean fluorescence intensity” 99.1 a.u.
Under “mean fluorescence intensity”, `2'F-ANA at 1 8 14` is recorded as 59.6 a.u.
For `2'F-ANA at 3 4 6 7 11 12`, “mean fluorescence intensity” read 762 a.u.
`2'F-ANA at 1 2 5 6 7 11 13 14 15` — result for “mean fluorescence intensity”: 51.9 a.u.
`2'F-ANA at 5 9 12 13` — result for “mean fluorescence intensity”: 107 a.u.
Under “mean fluorescence intensity”, `2'F-ANA at 2 4 7 10 11 12 13 15` is recorded as 95.6 a.u.
`2'F-ANA at 1 2 3 4 5 8 10` — result for “mean fluorescence intensity”: 46.1 a.u.

Set 4
Target: RNA binding protein fox-1 homolog 2, RRM domain, GST-SBP tag (RBFOX2, Homo sapiens, UniProt O43251-10, residues 100-194)
Method: RNA Bind-n-Seq
Molecule type: RNA
Sample: in vitro
Concentration: 365 nM
Notes: natural RNA segment, single round, ends assumed
Baseline: no-protein control
Reading: higher = stronger binding
Construct (chain): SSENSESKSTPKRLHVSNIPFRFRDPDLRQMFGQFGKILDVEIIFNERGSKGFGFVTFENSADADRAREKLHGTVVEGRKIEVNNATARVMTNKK
`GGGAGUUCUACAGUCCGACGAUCGUGGUUUUCAGUAUUGUGACAAUACAACGUUUUUACAAGGUUGUUUUCUACCACCAUAUUUUAAAGAUAUUUUUAUGACCGUGUAUACUCACACUUUGCUUGUAUUUUAAUGGAAUUCUCGGGUGCCAA` — result for “RBNS enrichment (R)”: 1.58.
`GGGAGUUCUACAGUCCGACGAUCCCUGGGGCUUGGGUGCCACGUGCUGAGAUUGCAUAGUCAAAACAGCCAUUUUUGCCAACAAUAGCUUGUGGCUCCCCACAUUUUCCUACCCUGCACUCAAGGGCCAGACCUGGAAUUCUCGGGUGCCAA`: “RBNS enrichment (R)” 0.432.
`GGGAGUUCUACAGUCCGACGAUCUGUUGUUUAGAAAUUUGCAAGGGCUUUUUUUCAGCAAUGCCACCAGCAGAUUAUAAUCUUGUCAACAGUUCAUUGUCUCCUCUUAGUACCACCAGUCACCUGCAUCAUUCUGGAAUUCUCGGGUGCCAA`: “RBNS enrichment (R)” 4.36.
`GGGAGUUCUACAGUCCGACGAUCCUGAGGUGCAAAGAAUGCACUUUUCCCUAUGGGGCCCAGAGUUUGCCUUUUCUGCCAGGCAGUCACCAUGCUUCCCUACCCCAGCCUGUUUCUUUUGGCUUGGUUUGGACUGGAAUUCUCGGGUGCCAA` — result for “RBNS enrichment (R)”: 0.914.
`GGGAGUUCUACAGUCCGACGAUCCUGUCCUCUUCAUGGUGUCUCUUCCGUGUUUUGCUGAGCUGUUCUCAGGCACCCCCUCACUGCUCCCUCUUGAAAGGGUUGCUAGCCUUAACUUCAGCUGGUGCGAAACAUGGAAUUCUCGGGUGCCAA` — result for “RBNS enrichment (R)”: 0.347.
Under “RBNS enrichment (R)”, `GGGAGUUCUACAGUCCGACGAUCUUCCUCUUUAAAAAACUGAGAAAAUGCAAAAACUGGAACUUUUUGCAAUAUUAUAAAAGAAGUAAUCUUAUUUUAGCUCAUUCUGUGACAUGUGCGACUCUUAAGAAAGCUGGAAUUCUCGGGUGCCAA` is recorded as 0.6.
For `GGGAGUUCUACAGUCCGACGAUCAGUGCCCUAUCCCUGGCAGGCCCCUAGUGGGGGUGUCGUGGCUUUUUUCAGAGUCUAUAAGCAUGCAGCCAUGGGUUGUGAGCUGACCUUGAGACAGGACGGGUCCCACAUGGAAUUCUCGGGUGCCAA`, “RBNS enrichment (R)” read 1.62.
For `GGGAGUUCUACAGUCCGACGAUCGGAGACCUUGACAGAGUGGUCAGCUGGAUCAGUGUGCCCUAAACUAAGUAAAAUCAUUGUUCCAUUCUUAUACAUUUGAAUGUGAUGGUGACCUUUGAAACAAUUCCAGGUGGAAUUCUCGGGUGCCAA`, “RBNS enrichment (R)” read 0.526.
